Published values gathered from unrelated publications.
Numbered parts are unrelated; each lists some results of a single study.

Block 1 — technique: RNA Bind-n-Seq; form: RNA; sample: in vitro; tested at: 200 nM; setting: whole 134-nt RNA, ends assumed; with: 150 mM KCl; relative to: input library; reading: higher = stronger binding; endpoint: log2 enrichment
Target: Fragile X messenger ribonucleoprotein 1, C-terminal low-complexity region (Fmr1, Mus musculus, UniProt P35922)
Constant ends, left off below: GGGAGUUCUACAGUCCGACGAUC … UGGAAUUCUCGGGUGUCAAGG
CUGUGCUACACAUCGUAUGUACCGAAUCGGGGUUUUUUUGGGGUUUGGGGUUUUUUUGGGGAAAGUAUUAUGUUACGCCGUUCGGAUCUG: -0.131
UGGAGAAGGAACGUGAUAAAGAAGUAAGCGAUGAUGAGGCUGAAGAAAAGGAAGACAAAGAAGAAGAAAAAGAAAAAGAAGAGAAAGAGU: 0.103
CAAGUCCUGUGCUACACAUCGUAUGUACCGAAUCGGGAAAGGGUGGGUUUUUGGGAAAGUAUUAUGUUACGCCGUUCGGAUCUGCACUUC: 1.07
CCUGUGCUACACAUCGUAUGUACCGAAUCGGCCCCCCCGGCCCCCCCGGGGCCCCCCCGGGAAAGUAUUAUGUUACGCCGUUCGGAUCUG: -0.452
AAGUCCUGUGCUACACAUCGUAUGUACCGAAUCGGGUGGGUUUGGGUUUUUUUGGGAAAGUAUUAUGUUACGCCGUUCGGAUCUGCACUU: 0.874
UGGACGAUGAAGAGGAAACAAUUGAAGAGGAGGAAGCAAAUGAAGGCGUUGUGGACCACCAAACAGAACUUUCUAAUUUAGCCAAGGAAG: 0.35
AAGUCCUGUGCUACACAUCGUAUGUACCGAAUCGGGAAAAAGGGAAAGGGUUUGGGAAAGUAUUAUGUUACGCCGUUCGGAUCUGCACUU: 0.202
AGUCCUGUGCUACACAUCGUAUGUACCGAAUCGGGCCCCGGGCCCCGGGCCCCGGGGAAAGUAUUAUGUUACGCCGUUCGGAUCUGCACU: -1.01
GCAGGAAGUAAAAACAAAUGGAAAUGCUUGGGAUAGUGGCAGGGGUGGGGGUUGCUAAGGAAAGGGUGGGAUGGGAGUGGGUAAAGAGUU: 0.0357
UCAAGUCCUGUGCUACACAUCGUAUGUACCGAAUCGGGGUUUGGUUUGGUUUGGGAAAGUAUUAUGUUACGCCGUUCGGAUCUGCACUUC: -0.142

Block 2 — target: human cyclin A2; observed: peptide binding; technique: competitive growth sequencing; form: peptide; organism: Saccharomyces cerevisiae; strain: cyclin A2-Cln2 fusion strain; tested at: concentration not given; setting: peptide tiling library; relative to: unfused Cln2 strain; reading: direction not given; endpoint: binding score
FREFEVEKQTAEETGL: 0.941
PKNAKRNLSSEFAN: 2.91
IPDRSTKPVVFSPT: -0.326
EPRNLLSLFEDTLDPT: 2.14
ESSQLTVQAEFDMSAI: -0.0497
IVLICAKRSLCAAFSV: 0.526
KPSACANAFGPVDHEE: -0.302
NVVSLDDPIQFTRVSS: 1.79
ALTMEALEDPSPELME: 0.946
PLRKAKRARLCSSSSS: 0.535
PKRAKRKLYTSEISSP: 1.02
TLPYDLACTGGDFVLF: 0.682
VKRLNFRSEEME: 0.822
SSEVARHLLFQSHM: -0.155
EPPHRRRLLFACSPPP: 0.309
STSRHAKAMFKTEGPD: -0.521
SCCKRKLVVGNGPEGP: 0.425
SAVPLILPQAPSGPSY: 0.488
NARRSLNFGGSTGT: 3.29
KRCATPVIIDEILPSK: -0.114
DWDTVERQEEEAPSWD: 0.442
PARRRLRLSVDEVSSP: 2.06
HPESPPRKRLKSKGSD: 1.65
TQERKQIHCLSEDELS: 0.346
YRSRIRAEAFIEEIQA: -0.453

Block 3 — technique: RNA Bind-n-Seq; form: RNA; sample: in vitro; tested at: 365 nM; relative to: no-protein control; reading: higher = stronger binding; endpoint: RBNS enrichment (R)
Target: RNA binding protein fox-1 homolog 2, RRM domain, GST-SBP tag (RBFOX2, Homo sapiens, UniProt O43251-10, residues 100-194)
Setting: natural RNA segment, single round, ends assumed
Constant ends, left off below: GGGAGUUCUACAGUCCGACGAUC … UGGAAUUCUCGGGUGCCAA
Target sequence (chain): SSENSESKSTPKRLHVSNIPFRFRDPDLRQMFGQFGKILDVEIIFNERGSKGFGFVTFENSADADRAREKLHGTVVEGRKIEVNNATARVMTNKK
UAGCCUGUCAGUGAUCUAUUGGACCAAACCUUCUGCACACUCGGCCAGUUCCCUCUCCAAUGUCCGGUGCCAUCUUUCCUGACCUUUGUUUCUUUCUGUUCAGGAACCAU: 2.36
CUCCACAUACCUACACCUUGGGUGCAUCACUCCAUUCAUGGCCUCCUGUUACCAACUGCGCAGACAUCACACAAUCCGUGCCAUGUGAUUGAGAAAUGGAAAUGCCACCU: 0.938
GACAGCUCUGCAUGUACUUGUGUUUUACGGCCUCAAGCAGAAUAAGGGACCUCCUCCUUAUUUCUGACUCAUAUCUAAGUAAGGUUCCCCAGGACAGCCACAGUUGUACU: 5.8
CUGAAAAGCUUAAAAUAAAUUUCUGAAUUAUGUAUCCUGAAGCUUUGAAAUUUCUUUAUUAAUCGAUGAAAUAUGAAUUCUAAAUUCUAGCAUUGAAGCUUUUCACCAAA: 0.547
UAGCAGAGAUUUGAUAAUAAAAAGAAAAUCCUAAACAAUGAGAAAUAAAGUUACCUGGUUUCUCUGUUCGAAGGAUUUAUAGUAACAUGAGAACUAGUAUCCCUUUGGAA: 0.85
GUUUUACUGAGUCAGAUGGUGGAAAGACAGAUGUCUCUAUACUUUCUUAACAAGCCACUCUGUCCCAUAACAUGCACUUGGAAUCUCUCCUAAGUUCCAGAGGCCCCACU: 0.347
GAAUUUAGGAGUGAUGUGUGACAUUUCUGACAUGGAGUUACCAUCCCCACAUGUAUCACAUACUGUCAUAUUCCCACAUGUAUCACACAUGUAUUGUAAAAUUUUGUAGU: 1.14
AAAUCAUGCUGCCAUGGGUCACACUGGCCUCUCAGGCCCACCCGUCACGGGGAACACACAGCGUUAAGUGUCUUUCCUUUAUUUUUUAAAGAAUCAAUAGCAGCAUCUAA: 0.311
AUCACAGAUUUUUAGACAAAUUUCUUGUAUCAGGAAGAAAUACAAAUUUUGUCAUGUUUCUCAAGCAGUUUUUCUGAGUAGUUUCUGAGGAGGAACAAAUUACAAGUGUA: 0.826
AAAACAAGUUUAGAUUUUAAUCAGAUUUGUAGGGUUUCUAACUUUACAGAAUUGCCUGUUUGUUUCAAUGUCUCCCUCCACUUGGCUCUUAGGGGAAUUAAGGACAGGCC: 0.309
GCUAGCCACACUCCGUGGCCCACCCUUUGUUACCAGUUCUUCCUCCUUCCUCUUUUCCCCUGCCUUUCUCAUUCCUUCCUUCGUCUCCCUUUUUGUUCCUUUGCCUCUUG: 2.83
UAAUAUAUUGUAAUCACAUUCCUUAGGAGGACUUUGGUAAUUGGUUUUAUGCAUUGAUGGUUUUUUUUUUCUUUUUUGCCAAAUUGACUGUCACGCGGCAGCUUCAGGGA: 0.838

Block 4 — technique: protein binding microarray; form: double-stranded DNA, one strand shown; sample: in vitro; tested at: not given; relative to: not given; reading: higher = stronger binding; endpoint: E-score
Target: Histone acetyltransferase KAT6A, both winged helices, GST fusion (KAT6A, Homo sapiens, UniProt Q92794, residues 1-181)
Setting: 8-mer, flanks averaged, mean of 2 arrays, mostly near background
Residues (chain): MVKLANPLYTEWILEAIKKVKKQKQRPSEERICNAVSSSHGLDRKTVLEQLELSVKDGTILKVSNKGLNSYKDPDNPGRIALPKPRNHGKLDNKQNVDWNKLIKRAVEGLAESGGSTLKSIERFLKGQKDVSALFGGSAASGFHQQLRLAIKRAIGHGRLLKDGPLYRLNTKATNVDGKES
AGGAAAGA: -0.221
CCACTGCG: 0.146
GGCGCCAA: 0.198
ATTATGGG: 0.00384
AGTCGACT: 0.131
AAAAAACG: 0.18
CGGCCTAG: 0.0645
AGGCAGCG: 0.0518
CACGGCTA: 0.319
GAACCAAC: -0.181
CTCAAATC: -0.122
ATGATGGA: -0.0905
GACCTGAA: -0.0318
CGTCGACG: 0.206
AAGAAAAT: -0.0721
CTTGTCTC: -0.221
ATTGAGTA: -0.114
AAAAGTCA: -0.0255
GCCATCGC: 0.205
AGGATAAG: -0.05
AACACGTC: 0.00766
AGCGATAT: -0.0414
AGGCTTAA: -0.0968
TAACGTTA: 0.0341
ACCTAAAT: -0.0613

A few entries again (block 1):
CAAGUCCUGUGCUACACAUCGUAUGUACCGAAUCGGGAAAGGGUGGGUUUUUGGGAAAGUAUUAUGUUACGCCGUUCGGAUCUGCACUUC: 1.07
CCUGUGCUACACAUCGUAUGUACCGAAUCGGCCCCCCCGGCCCCCCCGGGGCCCCCCCGGGAAAGUAUUAUGUUACGCCGUUCGGAUCUG: -0.452
AAGUCCUGUGCUACACAUCGUAUGUACCGAAUCGGGUGGGUUUGGGUUUUUUUGGGAAAGUAUUAUGUUACGCCGUUCGGAUCUGCACUU: 0.874
UGGACGAUGAAGAGGAAACAAUUGAAGAGGAGGAAGCAAAUGAAGGCGUUGUGGACCACCAAACAGAACUUUCUAAUUUAGCCAAGGAAG: 0.35
AAGUCCUGUGCUACACAUCGUAUGUACCGAAUCGGGAAAAAGGGAAAGGGUUUGGGAAAGUAUUAUGUUACGCCGUUCGGAUCUGCACUU: 0.202
